Published values pooled from the literature.
A part holds a random share of what one study measured. Values joined by “and” are separate records of one study, mostly repeats; a detail may differ.
Sequence of UniProt P49761 (whole entry, looked up): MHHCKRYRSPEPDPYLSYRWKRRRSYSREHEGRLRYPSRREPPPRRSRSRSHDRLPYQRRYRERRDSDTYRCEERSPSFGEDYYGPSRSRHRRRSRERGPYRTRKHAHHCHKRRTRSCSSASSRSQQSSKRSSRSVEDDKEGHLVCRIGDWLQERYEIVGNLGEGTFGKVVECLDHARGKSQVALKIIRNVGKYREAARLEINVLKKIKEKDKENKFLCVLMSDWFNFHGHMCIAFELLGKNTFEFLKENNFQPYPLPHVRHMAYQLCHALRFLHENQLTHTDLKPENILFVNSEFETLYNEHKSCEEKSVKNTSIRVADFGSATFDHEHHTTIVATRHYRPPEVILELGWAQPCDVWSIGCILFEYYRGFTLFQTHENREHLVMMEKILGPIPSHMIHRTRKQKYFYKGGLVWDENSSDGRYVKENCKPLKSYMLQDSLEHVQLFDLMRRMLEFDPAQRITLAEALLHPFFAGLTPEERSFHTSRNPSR
Sequence of UniProt Q9NYY3 (whole entry, looked up): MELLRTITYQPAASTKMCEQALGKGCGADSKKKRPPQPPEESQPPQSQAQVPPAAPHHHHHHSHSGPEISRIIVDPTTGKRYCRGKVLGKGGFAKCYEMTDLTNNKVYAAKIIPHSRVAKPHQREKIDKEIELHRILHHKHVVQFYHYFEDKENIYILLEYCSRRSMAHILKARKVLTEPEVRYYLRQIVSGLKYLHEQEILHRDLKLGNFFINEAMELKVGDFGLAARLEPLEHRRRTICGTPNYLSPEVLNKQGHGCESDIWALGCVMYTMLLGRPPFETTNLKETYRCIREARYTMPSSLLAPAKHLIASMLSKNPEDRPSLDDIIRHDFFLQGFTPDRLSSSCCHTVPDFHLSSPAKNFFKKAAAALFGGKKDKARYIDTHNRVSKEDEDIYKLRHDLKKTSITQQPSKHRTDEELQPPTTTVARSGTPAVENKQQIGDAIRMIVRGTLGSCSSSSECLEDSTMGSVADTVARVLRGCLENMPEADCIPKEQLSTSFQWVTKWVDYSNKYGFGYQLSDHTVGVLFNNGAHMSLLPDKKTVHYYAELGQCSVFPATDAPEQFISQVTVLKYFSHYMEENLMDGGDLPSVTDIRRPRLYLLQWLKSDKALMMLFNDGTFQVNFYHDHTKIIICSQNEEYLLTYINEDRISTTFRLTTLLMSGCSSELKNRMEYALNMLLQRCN
Sequence of UniProt Q13237 (whole entry, looked up): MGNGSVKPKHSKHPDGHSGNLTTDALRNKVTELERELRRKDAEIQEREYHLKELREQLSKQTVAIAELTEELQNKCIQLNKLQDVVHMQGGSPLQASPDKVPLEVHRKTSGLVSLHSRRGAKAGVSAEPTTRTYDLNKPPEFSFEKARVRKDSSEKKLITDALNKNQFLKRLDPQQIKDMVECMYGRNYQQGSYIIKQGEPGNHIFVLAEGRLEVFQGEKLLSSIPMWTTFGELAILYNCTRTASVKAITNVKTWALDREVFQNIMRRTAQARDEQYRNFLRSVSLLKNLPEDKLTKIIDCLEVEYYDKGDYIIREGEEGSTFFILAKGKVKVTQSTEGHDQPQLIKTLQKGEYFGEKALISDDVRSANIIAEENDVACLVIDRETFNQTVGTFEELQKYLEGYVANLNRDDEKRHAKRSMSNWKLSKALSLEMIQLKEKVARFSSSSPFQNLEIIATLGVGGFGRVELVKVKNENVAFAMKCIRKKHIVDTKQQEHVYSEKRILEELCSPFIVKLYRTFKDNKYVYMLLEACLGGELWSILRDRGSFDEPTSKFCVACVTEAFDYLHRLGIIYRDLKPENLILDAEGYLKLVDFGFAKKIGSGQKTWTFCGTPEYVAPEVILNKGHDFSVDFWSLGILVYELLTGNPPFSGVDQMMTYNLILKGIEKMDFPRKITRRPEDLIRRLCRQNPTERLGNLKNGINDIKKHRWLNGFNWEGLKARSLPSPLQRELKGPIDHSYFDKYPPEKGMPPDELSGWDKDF
Sequence of UniProt P35626 (whole entry, looked up): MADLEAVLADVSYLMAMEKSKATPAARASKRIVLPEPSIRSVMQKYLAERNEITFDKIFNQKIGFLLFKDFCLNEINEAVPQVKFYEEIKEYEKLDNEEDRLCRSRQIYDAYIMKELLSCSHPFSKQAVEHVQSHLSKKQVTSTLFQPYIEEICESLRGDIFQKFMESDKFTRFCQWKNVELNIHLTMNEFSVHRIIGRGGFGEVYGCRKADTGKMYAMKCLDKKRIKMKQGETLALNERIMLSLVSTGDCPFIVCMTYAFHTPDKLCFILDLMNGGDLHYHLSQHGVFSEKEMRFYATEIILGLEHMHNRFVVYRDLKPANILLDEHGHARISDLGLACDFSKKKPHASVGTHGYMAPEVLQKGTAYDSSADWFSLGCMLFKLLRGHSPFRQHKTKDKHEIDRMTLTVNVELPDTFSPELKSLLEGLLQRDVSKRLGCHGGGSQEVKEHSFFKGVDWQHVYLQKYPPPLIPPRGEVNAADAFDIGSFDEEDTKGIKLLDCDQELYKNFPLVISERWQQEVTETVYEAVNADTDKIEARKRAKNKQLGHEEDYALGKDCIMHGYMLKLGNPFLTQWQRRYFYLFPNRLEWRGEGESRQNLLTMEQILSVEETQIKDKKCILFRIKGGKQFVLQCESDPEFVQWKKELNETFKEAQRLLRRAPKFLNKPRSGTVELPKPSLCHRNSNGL
Sequence of UniProt Q16620 (whole entry, looked up): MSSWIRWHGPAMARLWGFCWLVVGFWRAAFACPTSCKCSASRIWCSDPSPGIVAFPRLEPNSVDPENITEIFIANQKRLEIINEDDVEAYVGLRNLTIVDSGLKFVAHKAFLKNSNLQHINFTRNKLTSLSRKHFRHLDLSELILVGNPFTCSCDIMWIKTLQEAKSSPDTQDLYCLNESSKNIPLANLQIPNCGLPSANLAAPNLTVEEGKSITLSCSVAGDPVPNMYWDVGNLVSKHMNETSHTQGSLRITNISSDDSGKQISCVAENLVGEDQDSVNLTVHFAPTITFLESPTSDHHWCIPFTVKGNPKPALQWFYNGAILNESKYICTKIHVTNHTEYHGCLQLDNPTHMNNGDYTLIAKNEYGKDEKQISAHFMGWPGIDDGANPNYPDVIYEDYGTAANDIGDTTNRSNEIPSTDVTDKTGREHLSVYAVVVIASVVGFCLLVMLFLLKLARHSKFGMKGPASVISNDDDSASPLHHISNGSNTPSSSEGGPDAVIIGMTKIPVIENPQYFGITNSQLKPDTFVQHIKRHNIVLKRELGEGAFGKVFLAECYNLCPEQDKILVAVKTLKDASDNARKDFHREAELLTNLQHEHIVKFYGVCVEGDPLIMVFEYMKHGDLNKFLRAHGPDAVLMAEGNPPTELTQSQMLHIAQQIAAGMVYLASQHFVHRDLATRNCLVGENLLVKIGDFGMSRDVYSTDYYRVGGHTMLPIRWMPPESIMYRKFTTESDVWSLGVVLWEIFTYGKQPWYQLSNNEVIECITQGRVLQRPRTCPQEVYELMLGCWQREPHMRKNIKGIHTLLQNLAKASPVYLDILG
Sequence of UniProt P36897 (whole entry, looked up): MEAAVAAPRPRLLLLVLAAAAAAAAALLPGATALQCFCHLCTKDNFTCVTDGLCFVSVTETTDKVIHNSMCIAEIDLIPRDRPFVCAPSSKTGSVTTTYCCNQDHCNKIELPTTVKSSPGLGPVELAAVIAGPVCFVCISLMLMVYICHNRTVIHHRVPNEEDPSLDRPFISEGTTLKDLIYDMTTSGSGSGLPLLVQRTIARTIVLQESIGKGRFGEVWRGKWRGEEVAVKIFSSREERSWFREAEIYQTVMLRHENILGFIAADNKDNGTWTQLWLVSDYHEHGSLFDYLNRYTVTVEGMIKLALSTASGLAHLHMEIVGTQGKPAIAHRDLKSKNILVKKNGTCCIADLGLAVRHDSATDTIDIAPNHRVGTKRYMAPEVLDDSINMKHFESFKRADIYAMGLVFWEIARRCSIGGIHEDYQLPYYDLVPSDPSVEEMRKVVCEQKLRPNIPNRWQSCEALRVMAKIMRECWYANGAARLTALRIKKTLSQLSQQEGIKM
Sequence of UniProt P33981 (whole entry, looked up): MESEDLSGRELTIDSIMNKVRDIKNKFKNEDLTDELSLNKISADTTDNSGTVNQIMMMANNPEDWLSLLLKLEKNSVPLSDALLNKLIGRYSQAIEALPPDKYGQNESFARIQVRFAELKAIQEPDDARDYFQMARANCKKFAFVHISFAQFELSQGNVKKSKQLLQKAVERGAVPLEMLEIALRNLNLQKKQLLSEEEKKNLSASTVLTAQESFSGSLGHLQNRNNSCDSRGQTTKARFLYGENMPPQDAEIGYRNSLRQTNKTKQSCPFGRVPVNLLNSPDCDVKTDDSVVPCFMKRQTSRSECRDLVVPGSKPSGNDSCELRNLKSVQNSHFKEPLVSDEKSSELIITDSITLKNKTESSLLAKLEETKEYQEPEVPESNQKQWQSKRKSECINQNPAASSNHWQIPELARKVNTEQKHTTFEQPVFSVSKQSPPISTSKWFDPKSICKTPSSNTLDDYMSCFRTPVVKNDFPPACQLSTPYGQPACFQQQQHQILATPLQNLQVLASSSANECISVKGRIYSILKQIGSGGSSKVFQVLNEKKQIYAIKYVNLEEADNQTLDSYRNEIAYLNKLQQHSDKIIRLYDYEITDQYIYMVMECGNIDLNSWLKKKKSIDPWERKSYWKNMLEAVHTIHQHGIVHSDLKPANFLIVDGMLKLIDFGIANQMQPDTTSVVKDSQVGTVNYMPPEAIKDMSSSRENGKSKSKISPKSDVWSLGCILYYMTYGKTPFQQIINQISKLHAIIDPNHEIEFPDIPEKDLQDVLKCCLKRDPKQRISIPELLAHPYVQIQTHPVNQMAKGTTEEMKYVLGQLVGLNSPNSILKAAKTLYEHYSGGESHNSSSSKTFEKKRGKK

Set 1 — observed: cell-free assay; technique: competition with immobilised ligand; tested at: 1 µM
Structure (SMILES): CCCCN(CCCC)C(=O)CN1C[C@H](c2cc(OC)c3c(c2)OCO3)[C@@H](C(=O)O)[C@@H]1CC(C)(C)CCC
target	remaining binding [%]
MAP3K15 (Homo sapiens, UniProt Q6ZN16)	100
PHKG1 (Homo sapiens, UniProt Q16816)	100
BMP2K (Homo sapiens, UniProt Q9NSY1)	100
EIF2AK1 (Homo sapiens, UniProt Q9BQI3)	100
PRKG2 (Homo sapiens, UniProt Q13237)	100
ITK (Homo sapiens, UniProt Q08881)	100
STK10 (Homo sapiens, UniProt O94804)	100
CDK8 (Homo sapiens, UniProt P49336)	100
MAP3K19 (Homo sapiens, UniProt Q56UN5)	90.3

Set 2 — observed: enzyme activity; action: inhibitor; tested at: 1 µM
SMILES: CO[C@@H]1[C@H](N(C)C(=O)c2ccccc2)C[C@H]2O[C@]1(C)n1c3ccccc3c3c4c(c5c6ccccc6n2c5c31)C(=O)NC4
target	inhibition [%]
NEK7 (Homo sapiens, UniProt Q8TDX7)	0
GRK3 (Homo sapiens, UniProt P35626)	58
BUB1 (Homo sapiens, UniProt O43683)	8
CSNK2A2 (Homo sapiens, UniProt P19784)	12
DYRK1A (Homo sapiens, UniProt Q13627)	96
WNK1 (Homo sapiens, UniProt Q9H4A3)	15
PLK2 (Homo sapiens, UniProt Q9NYY3)	21
TTK (Homo sapiens, UniProt P33981)	66
CLK3 (Homo sapiens, UniProt P49761)	9
DYRK2 (Homo sapiens, UniProt Q92630)	12
NTRK2 (Homo sapiens, UniProt Q16620)	88
TGFBR1 (Homo sapiens, UniProt P36897)	3
CSNK1A1L (Homo sapiens, UniProt Q8N752)	0

Set 3 — observed: enzyme activity; action: inhibitor; tested at: 0.5 µM; reference: control
Target: Dual specificity tyrosine-phosphorylation-regulated kinase 1A (DYRK1A, Homo sapiens, UniProt Q13627)
Structure (SMILES)	remaining activity
COc1ccc(OC)c2c(=S)c3ccccc3[nH]c12	103%
Oc1ccc(-c2nc(-c3ccncc3)c(-c3ccc(F)cc3)[nH]2)cc1	99.6%
COc1ccc(CNC(=O)Nc2ncc([N+](=O)[O-])s2)cc1	95.6%
COc1cc2ncnc(Nc3ccc(F)c(Cl)c3)c2cc1OCCCN1CCOCC1	101%
COc1cc2ncnc(Nc3ccc(Oc4ccccc4)cc3)c2cc1OC	84.6%
Cc1cccc(-c2[nH]c(C(C)(C)C)nc2-c2ccc3c(c2)OCO3)n1	98.4%
Nc1ncnc2n[nH]c(Nc3ccc(F)cc3)c12	86.4%
O=S(=O)(c1cccc2cnccc12)N1CCCNCC1	99.4%
CCOC(=O)c1c(C)[nH]c(/C=C2\C(=O)Nc3ccccc32)c1C	95.7%
CO[C@H]1C[C@@H]2CC[C@@H](C)[C@@](O)(O2)C(=O)C(=O)N2CCCC[C@H]2C(=O)O[C@H]([C@H](C)C[C@@H]2CC[C@@H](O)[C@H](OC)C2)CC(=O)[C@H](C)/C=C(\C)[C@@H](O)[C@@H](OC)C(=O)[C@H](C)C[C@H](C)/C=C/C=C/C=C/1C	94.3%
Cc1nc(-c2ccccc2)c(-c2ccncc2)o1	98.4%
CNC(=O)c1cc(Oc2ccc(NC(=O)Nc3ccc(Cl)c(C(F)(F)F)c3)cc2)ccn1	103%
Nc1ccc2ncnc(NCCc3ccc(Oc4ccccc4)cc3)c2c1	101%
O=C(Nc1cccc(Nc2cc(Nc3cccc(C(F)(F)F)c3)ncn2)c1)C1CC1	104%

Set 4 — cell line: mouse MPNST tumor cells; technique: high-content immunofluorescence imaging; refers to: nuclear SOX9; tested at: 10 µM; time: 12 h; setting: mean of 2 replicates; reference: DMSO control; reading: higher = more nuclear SOX9
SMILES	nuclear SOX9 intensity
O=C1NCCc2[nH]c(-c3ccncc3)cc21	63.2 % of DMSO
C=CCNc1ncnc2ccc(Br)cc12	116 % of DMSO
CCc1c(C)[nH]c2c1C(=O)C(CN1CCOCC1)CC2 (centres unmarked)	106 % of DMSO
O=C(NCc1ccc(F)cc1)C1CCN(S(=O)(=O)c2cc(Cl)cc(Cl)c2)CC1	100 % of DMSO
O=C1CN2Cc3c(ccc(Cl)c3Cl)N=C2N1	94.2 % of DMSO
CCCCOc1cc(C(=O)NCCN(CC)CC)c2ccccc2n1	166 % of DMSO
CN(C)CCCC1(c2ccc(F)cc2)OCc2cc(C#N)ccc21 (centres unmarked)	114 % of DMSO and 122 % of DMSO
NC(=O)c1cc[n+](CC2=C(C(=O)[O-])N3C(=O)[C@@H](NC(=O)[C@@H](c4ccccc4)S(=O)(=O)O)[C@H]3SC2)cc1	101 % of DMSO
COc1ccc(-c2ccc(OCc3cc(C(=O)NS(=O)(=O)c4ccccc4C)oc3C)cc2)nc1	102 % of DMSO
Clc1cccc(Cl)c1CSc1nnc(-c2ccc[nH]2)o1	88.3 % of DMSO
CNc1cc2c(Nc3cccc(Br)c3)ncnc2cn1	98.1 % of DMSO

Some of these lines once more (set 2):
target	inhibition [%]
TGFBR1 (Homo sapiens, UniProt P36897)	3
NEK7 (Homo sapiens, UniProt Q8TDX7)	0
DYRK2 (Homo sapiens, UniProt Q92630)	12
DYRK1A (Homo sapiens, UniProt Q13627)	96
